Experimental data of several laboratories.
Parts stem from different laboratories: compare values within a part only.

Series 1
Target: Histone acetyltransferase KAT6A, winged helix 1, GST fusion (KAT6A, Homo sapiens, UniProt Q92794, residues 1-85)
Technique: protein binding microarray
Form: double-stranded DNA, one strand shown
Sample: in vitro
Concentration: not given
Notes: 8-mer, flanks averaged, mean of 2 arrays, mostly near background
Baseline: not given
Direction: higher = stronger binding
Quantity: E-score
Construct (chain): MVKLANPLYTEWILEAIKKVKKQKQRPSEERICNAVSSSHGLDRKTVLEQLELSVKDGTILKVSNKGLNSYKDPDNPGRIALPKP
ATTATGAA: -0.00571
ATTTAGCC: 0.0249
AAGGCTCC: -0.118
AGATGTTC: -0.149
CGCGTACA: 0.276
CGGTACAC: 0.192
TAAGCCAA: -0.256
CCCCGGAA: 0.0611
CAATTGTC: -0.0933
GACCCACC: 0.0364

Series 2
Target: Interferon regulatory factor 7, full length, phosphomimetic (IRF7, Homo sapiens, UniProt Q92985, residues 1-503, S471D/S472D/S475D/S476D/S477D/S483D/S484D/S487D)
Technique: protein-binding microarray
Form: double-stranded DNA, one strand shown
Sample: in vitro
Concentration: 2200 nM top
Notes: 60-bp whole probe
Added: salmon DNA 0.4 mg/ml
Baseline: random background probes
Direction: higher = stronger binding
Quantity: fitted relative affinity
Constant ends, left off below: GCCTAGCAC … GTCTTGATTCGCTTGACGCTGCTG
Target sequence (chain): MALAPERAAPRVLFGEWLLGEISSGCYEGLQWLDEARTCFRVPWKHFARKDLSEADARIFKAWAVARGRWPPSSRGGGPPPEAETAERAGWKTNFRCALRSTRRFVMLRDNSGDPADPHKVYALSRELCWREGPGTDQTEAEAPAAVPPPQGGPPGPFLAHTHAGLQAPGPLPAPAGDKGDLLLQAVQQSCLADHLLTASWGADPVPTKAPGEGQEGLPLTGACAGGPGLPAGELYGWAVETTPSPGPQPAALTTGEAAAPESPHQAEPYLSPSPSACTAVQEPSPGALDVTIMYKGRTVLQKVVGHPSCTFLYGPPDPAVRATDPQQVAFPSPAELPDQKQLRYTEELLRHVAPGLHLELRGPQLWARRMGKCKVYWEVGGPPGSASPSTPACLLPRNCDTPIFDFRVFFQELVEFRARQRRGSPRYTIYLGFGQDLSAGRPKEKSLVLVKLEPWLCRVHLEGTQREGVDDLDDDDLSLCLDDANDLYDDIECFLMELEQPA
TTAGTACTGCTTCTCCTTTAGTGCTAG: 1.99 z-score
TTAGAACTGGGGACTTGATTAGTGCTA: -0.24 z-score
GACGGACTGGACTATCGGCACGTGCTA: -0.724 z-score
TTAGGTATCGACACTGGGCTAGTGCTA: -0.271 z-score
ATCCCATTAAATTTTAATAAGTGCTAG: 0.237 z-score
TTAGGACGGCTACTGCTTTAGTGCTAG: -0.494 z-score
TCACCTATTTATATGAGACTGTGCTAG: 1.37 z-score
TTAGATTTCGGTTTCGGTTAGTGCTAG: 14.4 z-score
GAGGGTTTCGACTATCGGGACGTGCTA: 1.58 z-score
TGATCCAAAAAGTGTGAGAAGTGCTAG: -0.251 z-score
TCAGATTTTGCTTTCATACTGTGCTAG: 2.58 z-score

Series 3
Target: RNA binding protein fox-1 homolog 2, RRM domain, GST-SBP tag (RBFOX2, Homo sapiens, UniProt O43251-10, residues 100-194)
Technique: RNA Bind-n-Seq
Form: RNA
Sample: in vitro
Concentration: 365 nM
Notes: natural RNA segment, single round, ends assumed
Baseline: no-protein control
Direction: higher = stronger binding
Quantity: RBNS enrichment (R)
Construct (chain): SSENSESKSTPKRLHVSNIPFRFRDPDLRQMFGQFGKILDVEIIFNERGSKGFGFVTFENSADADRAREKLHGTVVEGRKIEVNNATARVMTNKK
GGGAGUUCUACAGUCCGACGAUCGAUGAUGAAAACUAAGGAUUUUUCAAGAGAUCUUUCUUUCCAAAACAUUUCUGGACAGUACCUGAUUGUAUUUUUUUUUUAAAUAAAAGCACAAGUACUUUUGAGUUUGUUGGAAUUCUCGGGUGCCAA: 0.478
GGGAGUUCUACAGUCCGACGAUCGCUGGUGCCUAGCCCGGGUGAGUGAGGCUGGCUGUGUUGGCCUGGGUGACUUGUGGUUGUAGAGUUGGCCAUCAUUCUGCACUGUUGAUAGCUGUCUGCUCCAGUUUCUGUGGAAUUCUCGGGUGCCAA: 1.21
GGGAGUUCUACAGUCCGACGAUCUGGCUCAUGCCUCAGCCCGCCUUCAGGCUGCCCGCCGCCCCUCCACCCAUCCAGUGGACUCUGGGGCGCGGCCACAGGGGACGGGAUGAGGAGCGGGAGGGUUCCGCCACUGGAAUUCUCGGGUGCCAA: 0.217
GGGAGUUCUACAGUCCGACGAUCCCUCUUCAAGUUGUAACCGUGGCGGCUUUGUCCAUUACUGUUGCUAUUCUGCACACAUAUCGGAAGCAGCAAGCGCUUUACACACUUGAGUAGUGGGAUAAGUCACUGUUUGGAAUUCUCGGGUGCCAA: 0.268
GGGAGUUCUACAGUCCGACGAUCUGGGGAAGGGCCAGCCACUGACUACUUGAUCUUGGAGACCACAUUUAGAUGGAAAUGAGAGGACCUCCACAGCCCCGCCUCCCUGCCAGGAUGCUAGAUUAUUGGCUGGGUGGAAUUCUCGGGUGCCAA: 1.15
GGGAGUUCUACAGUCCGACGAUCUCCUGUCUCAUGGCAGAAAAUUUUGAAGAUUAAAAAAUAAAAUAAUCAAAAUGUUUCCUCUUUCUAAGUGCGUCUUAACUCUUUCUUCAUUUAUACUGAGAGUUUCCAUGUGGAAUUCUCGGGUGCCAA: 1.47
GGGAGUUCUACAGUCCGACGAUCAUUAAAUGUUUUAGUAUUUUGAACUGAAAUGGACAAAAAAAGAAAAAGGAAAAAAAAAGCAGGUUUGAACGAUCACUUUGUGGCCUCCUGGCCACUUUUAGACAUUAUCAUGGAAUUCUCGGGUGCCAA: 0.687
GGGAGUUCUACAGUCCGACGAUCUCGUUAUCCUCUGCUGUCUCUCUGGCAUCCUAUGAAUCAGAUCAAGCCCAUGCUGUUGUUGGUUUUUAAGGUUUCUUUCAAUAAUAGGCUAAGGAAAGACAUGUUUUUCUUGGAAUUCUCGGGUGCCAA: 0.291
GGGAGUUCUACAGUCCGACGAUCGAGUUAAUUUUGACUUUGUUAGAUGAGGGAGGAAAACUCAACUGUUUCUCUUUGUUAUCUAAAUGUUUCAGAAUUCAAUCGUGAAGGAACAGGCAUUUUACACUAUGAAGUGGAAUUCUCGGGUGCCAA: 0.374
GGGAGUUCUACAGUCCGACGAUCCUCCUGGGGUUUCGUUUCUAUGUGAGAGACGGGGACCCGGUUCUGUUGUGUGCAGCUUUAGCGGCAUCAGGACAGCUUCCAGCUUGCAAUGAUUGCUGCUGACAGGAACAUGGAAUUCUCGGGUGCCAA: 0.313
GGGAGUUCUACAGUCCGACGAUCGAUGCCCCAAGUUGUUUCCGGUUCUUUCUAGCUGUCCUUUUUAAAGUGUGUGCUCUUCCUUCCUUAAAACCUUUAGAUGUCCUGUUACACUAACACAGGUCUUCCCUUCCUGGAAUUCUCGGGUGCCAA: 0.551

Single results of other studies
PhoQ, residues 284 288 289 292 302 303 GANMMA — fold induction (PhoP, residues 12 14 15 18 19 HEGLL (Escherichia coli, UniProt P23836); Sort-seq, measured: YFP reporter; E. coli; PhoQ-PhoP variant library, added: 10 µM Mg2+; baseline: high Mg2+ state, higher = stronger signaling): 0.894

A few entries again (series 2):
TTAGGTATCGACACTGGGCTAGTGCTA: -0.271 z-score
ATCCCATTAAATTTTAATAAGTGCTAG: 0.237 z-score
